Results pooled from the literature.
Protocols differ between the studies behind these lines. “And” joins repeats or separate records; there may be more than shown. Converted amounts (≈) assume the structure as drawn.

SMILES = N=C(N)NCCC[C@@H]1NC(=O)[C@@H](CCCNC(=N)N)NC(=O)[C@H](CCCNC(=N)N)NC(=O)[C@@H](C(c2ccccc2)c2ccccc2)NC(=O)[C@@H](C(c2ccccc2)c2ccccc2)NC(=O)[C@@H](C(c2ccccc2)c2ccccc2)NC(=O)[C@@H](CCCNC(=N)N)NC1=O; organism = Aspergillus fumigatus; test = fungal growth; endpoint = MIC; value = > 64 µg/mL
SMILES = Cc1c(CN(C)C(=O)/C=C/c2cnc3c(c2)CC(N)C(=O)N3)oc2ccccc12 (stereo not shown); organism = Escherichia coli; test = broth microdilution; system = AR-0151; endpoint = MIC; value = 8 µg/mL (≈ 20.5 µM)
SMILES = CC(C)(C)NCC(SS(=O)(=O)O)c1ccccc1 (stereo not shown); organism = Schistosoma mansoni; system = infected mice; setting = 400 mg/kg single, day 42, perfusion day 56; scale = reference: vehicle; endpoint = female worm burden reduction; value = 100%
SMILES = CC(=O)C(C)(c1c[nH]c2ccccc12)c1c[nH]c2ccccc12; organism = Parabacteroides distasonis; test = bacterial growth, inhibitor, OD600; setting = anaerobic; endpoint = IC50; value = > 50000 nM
SMILES = C=C(NC(=O)c1csc(-c2nc3c(cc2O)-c2nc(cs2)C(=O)NC(C(C)O)C(=O)NC(=C(C)OC)c2nc(cs2)C(=O)NC2c4nc(cs4)C(=O)NC(COC(=O)c4c5c6c(cccc6n4O)COC(=O)C(OC4CC(C)(O)C(N(C)C)C(C)O4)C2OC5)c2nc-3cs2)n1)C(N)=O (stereo not shown); organism = Enterococcus faecalis; system = vancomycin-intermediate, 10 isolates; setting = serum 50%; endpoint = MIC50; value = 0.0312 µg/mL (≈ 0.0217 µM)
SMILES = Cc1cc(Cl)cc(S(C)=NC#N)c1NC(=O)c1cc(Br)nn1-c1ncccc1Cl (stereo not shown); organism = Spodoptera litura; system = Brassica oleracea field; setting = 50 ppm, 72 h, 10% wettable powder; endpoint = corrected larval mortality; value = 81.2%
SMILES = COC1C=COC2(C)Oc3c(C)c(O)c4c(c3C2=O)C2=NC3(CCN(CC(C)C)CC3)NC2=C(NC(=O)C(C)=CC=CC(C)C(O)C(C)C(O)C(C)C(OC(=O)Nc2cccnn2)C1C)C4=O (stereo not shown); organism = Mycobacteroides abscessus; test = intracellular growth, visual read; system = THP-1 derived macrophages, ATCC 19977; endpoint = IC50; value = 44 nM
SMILES = O=C1C(O)=C([C@H]2CC[C@H](c3ccc(Cl)cc3)CC2)C(=O)c2ccccc21; organism = Toxoplasma gondii; test = bradyzoite growth; setting = alkaline-induced bradyzoites; endpoint = EC50; value = 2070 nM
SMILES = C=C[C@]1(C)C[C@@H](OC(=O)CSc2ccc(NC(=O)c3ccco3)cc2)[C@]2(C)[C@H](C)CC[C@]3(CCC(=O)[C@H]32)[C@@H](C)[C@@H]1O; organism = Mycoplasma gallisepticum; system = infected chickens; setting = intramuscular, 60 mg/kg daily x3, scale 0 to 4; scale = direction not given; endpoint = air sac lesion score; value = 1 and 2 and 0
SMILES = COc1ccccc1-c1n[nH]c2nc(NC3CCN(C(=O)Cc4ccc(F)cc4F)CC3)ncc12; organism = Leishmania donovani; test = parasite growth; system = THP-1; setting = intracellular, amastigote; endpoint = EC50; value = 75.2 nM
SMILES = Cc1ccccc1/C=C/C(=O)N[C@H]1COC(=O)[C@H](CC(=O)O)NC(=O)[C@H]([C@@H](O)C(=O)c2ccccc2N)NC(=O)[C@@H](Cc2ccccc2)NC(=O)[C@@H](NC(=O)[C@@H](Cc2ccccc2)NC(=O)CN)[C@@H](C)OC1=O; organism = Mycobacterium avium; test = resazurin microtitre; system = 104; setting = 4 days, 37 °C; endpoint = MIC50; value = inactive
SMILES = CNCc1ccc2c(c1)N(C(=O)OCc1c(F)c(F)c(F)c(F)c1F)[C@H](CNC(=N)N)[C@H]2NC(=O)C(=O)Nc1ccc(Cl)c(F)c1; organism = HIV-1; test = pseudovirus infection, Env pseudovirus neutralisation; system = TZM-bl, clade G isolate C1_B5; endpoint = IC80; value = 4510 nM
SMILES = CC1C=CC=CC(C)C2C=CC3CC(C)(O)C(Cl)C(C)C3C2C(=O)C(Cl)(Cl)C(=O)C(C)C(=O)O1 (stereo not shown); organism = Staphylococcus aureus; system = MRSA clinical isolate; setting = resistant PEN/CIP/MXF; endpoint = MIC; value = 0.05 µg/mL (≈ 0.094 µM)
SMILES = N=C(N)NCCC[C@@H]1NC(=O)[C@H](CCCNC(=N)N)NC(=O)[C@@H](C(c2ccccc2)c2ccccc2)NC(=O)[C@H](Cc2c[nH]c3ccccc23)NC(=O)[C@@H](C(c2ccccc2)c2ccccc2)NC(=O)[C@@H](CCCNC(=N)N)NC(=O)[C@@H](CCCNC(=N)N)NC1=O; organism = Aspergillus fumigatus; system = Af 293; setting = 4 x MIC, 12 h; endpoint = reduction of viable cells; value = > 95%
SMILES = CC(C)CC(c1c[nH]c2ccccc12)c1c[nH]c2ccccc12; organism = Bacteroides fragilis; test = microbial growth, absorbance; endpoint = IC50; value = 81000 nM
SMILES = CCOC(=O)c1cc(-c2nc3ccccc3s2)c(=O)n(NS(=O)(=O)c2ccccc2)c1N; organism = hepatitis C virus; test = qRT-PCR; system = Huh7.5, genotype 4; setting = concentration not given; endpoint = viral load reduction; value = 0%
SMILES = C#CCO/N=C(\C(=O)N[C@@H]1C(=O)N(OS(=O)(=O)O)C1(C)C)c1csc(N)n1; organism = Serratia marcescens; test = agar dilution; system = ATCC 21074, susceptible; endpoint = MIC; value = 0.5 µg/mL (≈ 1.2 µM)
SMILES = c1ccc2c([C+](c3c[nH]c4ccccc34)c3c[nH]c4ccccc34)c[nH]c2c1; organism = Parabacteroides distasonis; test = bacterial growth, inhibitor, OD600; setting = anaerobic; endpoint = IC50; value = > 50000 nM
SMILES = O=S(=O)(CCC(F)(F)F)N[C@H]1CC[C@H](Nc2ncc3c(-c4ccccn4)n[nH]c3n2)CC1; organism = Leishmania donovani; test = parasite growth; system = THP-1; setting = intracellular, amastigote; endpoint = EC50; value = 316 nM

A few entries again:
SMILES = CC(C)CC(c1c[nH]c2ccccc12)c1c[nH]c2ccccc12; organism = Bacteroides fragilis; test = microbial growth, absorbance; endpoint = IC50; value = 81000 nM
SMILES = CCOC(=O)c1cc(-c2nc3ccccc3s2)c(=O)n(NS(=O)(=O)c2ccccc2)c1N; organism = hepatitis C virus; test = qRT-PCR; system = Huh7.5, genotype 4; setting = concentration not given; endpoint = viral load reduction; value = 0%
